Results of several laboratories.
Each numbered part is a random draw from the data of one study; scales do not carry over between parts. Changes are numbered by the printed parent chain.

Block 1
Target: ABI1, truncated, D143A, DHFR fusion (Arabidopsis thaliana)
Technique: DHFR PCA, deep sequencing
Medium: yeast
Setting: methotrexate growth selection, single substitutions
With: (+)-ABA 58 µM
Relative to: wild-type fitted maximum
Reading: higher = stronger binding
Endpoint: relative binding score
Starting sequence: PYL1, truncated, DHFR fusion (Arabidopsis thaliana); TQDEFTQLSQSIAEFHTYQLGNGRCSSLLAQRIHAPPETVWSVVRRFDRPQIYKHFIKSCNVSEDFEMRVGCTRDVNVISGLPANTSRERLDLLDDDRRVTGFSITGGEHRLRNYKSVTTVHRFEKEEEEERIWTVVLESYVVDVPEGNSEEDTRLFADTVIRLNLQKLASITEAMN; partner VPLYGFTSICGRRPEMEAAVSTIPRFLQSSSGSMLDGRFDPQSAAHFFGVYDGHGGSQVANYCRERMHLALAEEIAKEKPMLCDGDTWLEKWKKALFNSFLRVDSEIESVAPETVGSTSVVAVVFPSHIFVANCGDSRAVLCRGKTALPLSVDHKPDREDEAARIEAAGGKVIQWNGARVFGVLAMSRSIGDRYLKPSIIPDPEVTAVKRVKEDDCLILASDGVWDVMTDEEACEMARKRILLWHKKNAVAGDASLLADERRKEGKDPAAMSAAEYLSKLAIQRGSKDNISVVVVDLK
A13Y: 75.8%
V62A: 55.3%
R74L: 1.53%
A35M: 29%
V44E: 3.48%
D144V: 33.1%
F56W: 80.8%
N114L: -0.472%
T120W: -11.8%
L20H: 99.6%
E109F: 45.6%
E128H: 96.4%
E127H: 94.4%
Q19D: 95.8%
P37S: 66.4%
D95E: 55.6%
I12V: 73.3%

Block 2
Target: JUNB, bZIP domain (human)
Technique: DHFR protein complementation
Medium: yeast
Setting: single substitutions, most at no-binding floor
Relative to: wild-type JUN-FOS pair
Reading: higher = stronger binding
Endpoint: binding fitness
Starting sequence: JUN, bZIP domain (human); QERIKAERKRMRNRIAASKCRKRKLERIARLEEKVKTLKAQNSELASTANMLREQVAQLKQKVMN; partner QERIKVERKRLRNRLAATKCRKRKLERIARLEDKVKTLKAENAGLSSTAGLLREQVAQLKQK
L31K: -1.52 natural log
L38K: -1.4 natural log
A49N: -0.778 natural log
T48Q: -0.922 natural log
R30S: -1.06 natural log
Q58S: -1.09 natural log
L59G: -1.17 natural log
L45I: -1.49 natural log
M51W: -1.33 natural log
A57V: -1.35 natural log
R53A: -1.37 natural log
R53N: -1.51 natural log

Block 3
Target: RING finger protein unkempt homolog, zinc fingers 1-6, GST-SBP tag (UNK, Homo sapiens, UniProt Q9C0B0, residues 30-357)
Technique: RNA Bind-n-Seq
Form: RNA
Medium: in vitro
Concentration: not given
Setting: RNA with constant flanks, human and mouse sites, ends assumed
Relative to: input RNA pool
Reading: higher = stronger binding
Endpoint: bound/input enrichment
Shared flanks, not repeated: GGGAGUUCUACAGUCCGACGAUC … CAACAGAGGAUUGAGCAUCA
Construct (chain): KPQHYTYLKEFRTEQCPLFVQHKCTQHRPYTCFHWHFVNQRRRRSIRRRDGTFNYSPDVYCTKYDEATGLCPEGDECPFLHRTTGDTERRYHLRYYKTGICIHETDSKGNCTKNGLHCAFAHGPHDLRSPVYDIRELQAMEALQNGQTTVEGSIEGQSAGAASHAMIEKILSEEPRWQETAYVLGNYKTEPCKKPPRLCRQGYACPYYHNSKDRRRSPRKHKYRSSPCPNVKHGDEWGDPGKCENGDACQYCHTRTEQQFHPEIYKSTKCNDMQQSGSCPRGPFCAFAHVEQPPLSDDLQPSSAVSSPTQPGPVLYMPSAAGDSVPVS
UUGUGUUUUGUACAGGGCAUUCUCUGUACUAGUUUGUCGUGGUUAUAAAACAAUUAGCAGAAUAGCCUACAUUUGUAUUUAUUUUCUAUUCCAUACUUCUGCCCACGUUGUUUUCUCUCA: 8.47 ratio
AUUAAGAAACAAAUCAUAUUGUGUAUGGAAGAAUUAGAACACUCUCCAGAUACAAGCUUUGAAAGAGAUGUGGUGUGUGAAGAUGAAAGUGCUUUUUGUUUAUCACUGGAGAACAUUGCA: 0.24 ratio
UGCGCCUUUUCUUCCUCUCUUUUUUUUCCCCCUUUCUUUCCCACCCCACCCCCUCCCAAUAAUAGAUUUACUUUACAAUCAUCCACACUGUGGUCUGUGGAUCUUUAAUAUAUAUAUAUA: 3.25 ratio
UGAGAACCCAGCCACCACCUCUCUAACCCUGGCUUGCCUUCUUUUUCCUUCCCGUUCUUUCUUUUUGUGGCAGGGUCUCACUAUGUAGCCCUGGCUGGCCUAGAAUUCUCUUUGUAGACG: 0.626 ratio
UGAAGUGGUUUUUGUGGGUGUGAAACAAAUGGUGAGAAUUUGAAUUGGUCCCUCCUAUUAUAGUAUUGAAAUUAAGUCUACUUAAUUUAUCAAGUCAUGUUCAUGCCCUGAUUUUAUAUA: 3.1 ratio
AAAGAAGUUGAAUCCCAGCUUCCCGAAAAAGUGGAAUAUGUGAUCAAGUGUGACAUGUCAGCUCUGCAGAAGAUUCUGUAUCGCCAUAUGCAAGCCAAGGGGAUCCUUCUCACAGAUGGU: 0.0912 ratio
UAUAAAAGGCGACACAAUCUUGACAACCUCUUACAGCAGCAUAAACAGAAAACUUCACGAAAACCUCGUGAAGAGCGAGAUGUGUCUCAAUGUGAAAGUGUCGCUUCCACUGUUUCUGCU: 0.215 ratio
GUAAUAGUAGCAAAUCCUAGGGAAGAAAUAAUCGUGAAAAAUAAAGAUGAAGAAGAGAAGUUAGUUAGUAAUAACAUCCUUCAUAAUCAACAAGAGUUACCUACAGCUCUUACUAAAUUG: 2.69 ratio
AUGGCUCUCCUGGUGCUCGGUCUGGUGAGCUGUACCUUCUUUCUGGCAGUGAAUGGUCUGUAUUCCUCUAGUGAUGAUGUGAUCGAAUUAACUCCAUCGAAUUUCAACCGAGAAGUUAUU: 0.333 ratio
AUCAUAGAGAACCAGCAGCAGCUAAACAGCCCUCUGCUUGCUUCCAAAGGGCUUAUAAUUGAGCACAGAUGGUCCUAGUGGAGAUGGGGAAUGUGUCCCUGCUGACUCCUCAUACCCCAG: 0.184 ratio
AGGUCUUGCCACUAGGAAUUUUUAAAAAGCAUACUUCUGUUACAUAUAACAACAUUUCAGGAAAUUCAGCCAGCUUGUUUUCUUUCUCUCCUGUGUUAAUAUUUAGUGUUUCUCAUGAGG: 13.6 ratio

Block 4
Target: Centromere-binding protein 1, full length, His-tagged (CBF1, Saccharomyces cerevisiae, UniProt P17106, residues 1-351)
Chain of UniProt P17106 (whole entry, looked up): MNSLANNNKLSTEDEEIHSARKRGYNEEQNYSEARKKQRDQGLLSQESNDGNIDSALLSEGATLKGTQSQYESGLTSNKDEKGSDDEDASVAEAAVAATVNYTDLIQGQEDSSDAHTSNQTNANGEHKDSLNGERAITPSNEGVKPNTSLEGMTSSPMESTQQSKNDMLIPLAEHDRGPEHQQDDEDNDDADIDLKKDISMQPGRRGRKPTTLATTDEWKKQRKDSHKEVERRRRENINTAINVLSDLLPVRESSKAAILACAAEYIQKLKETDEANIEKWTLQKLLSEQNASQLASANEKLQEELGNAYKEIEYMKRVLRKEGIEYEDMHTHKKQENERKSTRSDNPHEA
Technique: competition protein-binding microarray
Form: double-stranded DNA, one strand shown
Medium: in vitro
Concentration: 2 µM
Setting: whole 60-bp probe, lowest competitor level
With: Pho4 competitor, 0.05 µM
Reading: higher = stronger binding
Endpoint: fluorescence intensity
Shared flanks, not repeated: … GTCTTGATTCGCTTGACGCTGCTG
TACAAATTGGTCCGTCACGTTTCTTTTGTTGACTGT: 591 a.u.
CAATTGTTGCTCTGGCACGTGAGATATATGGTAAGA: 2040 a.u.
GCGTCGAAATCTAATTTTGTGACAGTGTAGTTCTTA: 88.1 a.u.
TGTACCGGGTGGGACGTCGTGCAAAGAATCAGAAGT: 73.3 a.u.
ACTCCAAAATACATCCTCGTGGCAACCCAGGCTACG: 93.2 a.u.
CGGGGTTAAGTTTGCAAAGTGGGTGGCTTGCAGCAG: 70.2 a.u.
CGTCCTAGTGATTGTCACGTGACTTCCATGAGGAAG: 24800 a.u.
CTTTCCCGATCTTGACTAGTGGGTGTAGCACATTTG: 62.7 a.u.
TGGATATGCCGATTTCTCGTGAATAAATTTTACGGA: 95.9 a.u.
GAAGCTGTTATACTATTCGTGATTGTGGGCAAAAAT: 82.2 a.u.
AGAGCATAGGTTTGACCCGTGATTGTGCCGACGTCA: 183 a.u.
TCTTATATTGCAAAGCACGTTTCATCAAGACCTTTA: 160 a.u.
AGTCGAGCCGCCCGTCACGTGCGGAGCCGCCCTGCT: 2440 a.u.
CTTTCCCGATCTTGACTCGTGGGTGTAGCACATTTG: 76.1 a.u.
CTTCTGTAAATTTGTCACTACACTTGACGCGCCCCG: 88.9 a.u.
AAATTACTAAGTTGGGATGTGGGTGACGCCGTATGA: 68.3 a.u.
CTTCTGTAAATTTGTGGGGTGGGTGGACGCGCCCCG: 96 a.u.
GGCACCCGCGATTCACACGTGTCCAAAAGAGTTCCC: 1010 a.u.
CGGGGTTAAGTTTTTCACGTGGCTTGCTTGCAGCAG: 709 a.u.
AAATGGCCAATATTCTACGTGCTTTTTATTAGAAAC: 96.8 a.u.
TTTTCTTTTACCGGCCACGTGAAATGATGATAAAAA: 1450 a.u.
GTCGGCGGCGCAGCTCACGTGACCGCGCTCTGGGCC: 8500 a.u.
TGCGCAACAACTTGTCACTCCACTTTATGTCTAGAA: 79.6 a.u.
TTCCTTTGGATTTTCCGCGTGTGTTTTCTGACCGTT: 79.6 a.u.

Block 5
Target: CCND3, cyclin fold, Cln2 fusion (human)
Technique: yeast growth competition, sequencing
Medium: yeast
Setting: weak parent motif
Relative to: not given
Reading: higher = stronger binding
Endpoint: normalised enrichment score
Starting sequence: ORC1 docking peptide (human); PRARKRLELGNLG; partner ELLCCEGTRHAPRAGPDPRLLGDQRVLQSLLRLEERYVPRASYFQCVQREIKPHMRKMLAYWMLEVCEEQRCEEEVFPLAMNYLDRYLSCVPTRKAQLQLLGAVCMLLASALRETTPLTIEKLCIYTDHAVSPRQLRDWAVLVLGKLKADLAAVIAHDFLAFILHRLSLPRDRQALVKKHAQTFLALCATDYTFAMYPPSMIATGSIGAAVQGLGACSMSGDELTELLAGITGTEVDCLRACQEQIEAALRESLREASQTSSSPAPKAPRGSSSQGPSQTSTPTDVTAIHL
PRARKNLELGNLG [R6N]: 0.108
PRARKRLELGSLG [N11S]: 0.134
PMARKRLELGNLG [R2M]: 0.173
PRARKRGELGNLG [L7G]: 0.0483
PRAPKRLELGNLG [R4P]: 0.129
PRARKRLELGNLF [G13F]: 0.0654
PAARKRLELGNLG [R2A]: 0.149
PRARKRMELGNLG [L7M]: 0.122
PRAAKRLELGNLG [R4A]: 0.116
PRARKRLYLGNLG [E8Y]: 0.129
PRARKRLELGNTG [L12T]: 0.101
PRARKELELGNLG [R6E]: 0.116
PRLRKRLELGNLG [A3L]: 0.0941
PRASKRLELGNLG [R4S]: 0.081
PRARKRLELGDLG [N11D]: 0.0966
PRIRKRLELGNLG [A3I]: 0.216
PRARKYLELGNLG [R6Y]: 0.207
PRAIKRLELGNLG [R4I]: 0.114
PNARKRLELGNLG [R2N]: 0.136
PKARKRLELGNLG [R2K]: 0.0368
PRARKRLTLGNLG [E8T]: 0.0455
PRARKRLELGNEG [L12E]: 0.129
PRARKRTELGNLG [L7T]: 0.0702
PRARKRLELGNDG [L12D]: 0.0824
PRARKGLELGNLG [R6G]: 0.277

Block 6
Target: Histone acetyltransferase KAT6A, both winged helices, GST fusion (KAT6A, Homo sapiens, UniProt Q92794, residues 1-181)
Technique: protein binding microarray
Form: double-stranded DNA, one strand shown
Medium: in vitro
Concentration: not given
Setting: 8-mer, flanks averaged, mean of 2 arrays, mostly near background
Relative to: not given
Reading: higher = stronger binding
Endpoint: E-score
Construct (chain): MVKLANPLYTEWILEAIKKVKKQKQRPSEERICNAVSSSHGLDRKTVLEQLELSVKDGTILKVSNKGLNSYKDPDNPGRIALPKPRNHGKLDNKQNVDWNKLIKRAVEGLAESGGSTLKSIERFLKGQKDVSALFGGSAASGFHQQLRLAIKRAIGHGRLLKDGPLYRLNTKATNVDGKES
GAAACAGA: 0.00346
TCTCTCAA: -0.128
TGGAACAA: -0.209
ACGTTCCC: 0.0986
AGGAGTAA: -0.174
TAATCTGA: -0.096
ACAATGTA: -0.112
CTTTGTGA: -0.0635
TGAATTAA: -0.0623
CATTCTTC: -0.0878
CCTACTCA: -0.0994
CGCGGACA: 0.298
CGCACCAA: 0.0778
CAAGGCAC: -0.193
ACGGAGCA: 0.0622
CGGATTGA: 0.155
CTTCCTAC: -0.162
ACCTCAAT: -0.181
CACCATCA: -0.113
ACCCAAGG: 0.0381
ATTACCAC: -0.147
AGCCTATA: -0.145
CGCGCAAG: 0.313
ACCCGAAG: 0.0148
CTACGCCC: 0.108

Some of these lines once more (block 4):
GCGTCGAAATCTAATTTTGTGACAGTGTAGTTCTTA: 88.1 a.u.
TTTTCTTTTACCGGCCACGTGAAATGATGATAAAAA: 1450 a.u.
CTTTCCCGATCTTGACTAGTGGGTGTAGCACATTTG: 62.7 a.u.
TGTACCGGGTGGGACGTCGTGCAAAGAATCAGAAGT: 73.3 a.u.
GTCGGCGGCGCAGCTCACGTGACCGCGCTCTGGGCC: 8500 a.u.
CAATTGTTGCTCTGGCACGTGAGATATATGGTAAGA: 2040 a.u.
CGGGGTTAAGTTTTTCACGTGGCTTGCTTGCAGCAG: 709 a.u.
GAAGCTGTTATACTATTCGTGATTGTGGGCAAAAAT: 82.2 a.u.
TGCGCAACAACTTGTCACTCCACTTTATGTCTAGAA: 79.6 a.u.
AAATGGCCAATATTCTACGTGCTTTTTATTAGAAAC: 96.8 a.u.
TCTTATATTGCAAAGCACGTTTCATCAAGACCTTTA: 160 a.u.
CTTCTGTAAATTTGTCACTACACTTGACGCGCCCCG: 88.9 a.u.
AGTCGAGCCGCCCGTCACGTGCGGAGCCGCCCTGCT: 2440 a.u.
TTCCTTTGGATTTTCCGCGTGTGTTTTCTGACCGTT: 79.6 a.u.
